Experimental data pooled from the literature.
Protocols differ between the studies behind these lines. ± gives the spread as reported.
Organism: Escherichia coli

`N=C(N)NCCC[C@H](NC(=O)[C@H](Cc1c[nH]cn1)NC(=O)[C@@H]1CCCN1C(=O)[C@H](CS)NC(=O)[C@@H](N)Cc1ccc(O)cc1)C(=O)N[C@@H](CS)C(=O)O` gave an MIC of 45 µg/mL (broth microdilution; MTCC 443; 37 °C).
With `CC(C)C[C@H](NC(=O)[C@H](C)NC(=O)[C@H](CC(C)C)NC(=O)[C@H](Cc1c[nH]cn1)NC(=O)[C@H](CC(C)C)NC(=O)[C@@H](NC(=O)[C@@H](N)CO)[C@@H](C)O)C(=O)N[C@@H](CCCNC(=N)N)C(=O)N[C@@H](CC(C)C)C(=O)N[C@@H](CCCNC(=N)N)C(=O)NCC(=O)NCC(=O)O` the MIC was greater than 100 µM (DH5α; 37 °C, ≥90% viability decrease).
With `CC[C@H](C)[C@H](NC(=O)CNC(=O)[C@H](CCCNC(=N)N)NC(=O)[C@H](Cc1ccccc1)NC(=O)[C@@H](NC(=O)[C@H](Cc1c[nH]cn1)NC(=O)[C@H](Cc1c[nH]cn1)NC(=O)[C@H](Cc1ccccc1)NC(=O)[C@@H](N)Cc1ccccc1)[C@@H](C)CC)C(=O)N[C@H](C(=O)N[C@@H](Cc1c[nH]cn1)C(=O)N[C@H](C(=O)NCC(=O)N[C@@H](CCCCN)C(=O)N[C@H](C(=O)N[C@@H](CCCCN)C(=O)N[C@@H](Cc1c[nH]cn1)C(=O)N[C@@H](CCCNC(=N)N)C(=O)N[C@@H](CC(C)C)C(=O)N[C@H](C(=O)N[C@H](C(=O)NCC(N)=O)[C@@H](C)O)C(C)C)[C@@H](C)O)C(C)C)C(C)C` the MIC was 3.1 µg/mL (broth microdilution; ATCC 25922; 18 h, 37 °C).
`CC[C@H](C)[C@H](NC(=O)[C@@H]1CCCN1C(=O)[C@H](Cc1c[nH]cn1)NC(=O)[C@H](CCCCN)NC(=O)[C@@H]1CCCN1C(=O)[C@@H](N)CCCNC(=N)N)C(=O)N[C@@H](CCCCN)C(=O)N[C@@H](Cc1c[nH]cn1)C(=O)N[C@@H](CCC(N)=O)C(=O)NCC(=O)N[C@@H](CC(C)C)C(=O)N1CCC[C@H]1C(=O)N[C@@H](CCC(N)=O)C(=O)N[C@@H](CCC(=O)O)C(=O)N[C@H](C(=O)N[C@@H](CC(C)C)C(=O)N[C@@H](CC(N)=O)C(=O)N[C@@H](CCC(=O)O)C(=O)N[C@@H](CC(N)=O)C(=O)N[C@@H](CC(C)C)C(=O)N[C@@H](CC(C)C)C(=O)N[C@@H](CCCNC(=N)N)C(=O)N[C@@H](Cc1ccccc1)C(=O)O)C(C)C` has an MIC of greater than 100 µM (broth microdilution; K12; 37 °C).
`CC[C@H](C)[C@H](NC(=O)[C@H](CCCNC(=N)N)NC(=O)[C@@H](N)CCCNC(=N)N)C(=O)N[C@@H](CCCNC(=N)N)C(=O)N1CCC[C@H]1C(=O)N[C@@H](CCCNC(=N)N)C(=O)N1CCC[C@H]1C(=O)N1CCC[C@H]1C(=O)N[C@@H](CCCNC(=N)N)C(=O)N[C@@H](CC(C)C)C(=O)N1CCC[C@H]1C(=O)N[C@@H](CCCNC(=N)N)C(=O)N1CCC[C@H]1C(=O)N[C@@H](CCCNC(=N)N)C(=O)N1CCC[C@H]1C(=O)N[C@@H](CCCNC(=N)N)C(=O)N1CCC[C@H]1C(=O)N[C@@H](CC(C)C)C(=O)N1CCC[C@H]1C(=O)N[C@@H](Cc1ccccc1)C(=O)N1CCC[C@H]1C(=O)N[C@@H](CCCNC(=N)N)C(=O)N1CCC[C@H]1C(=O)NCC(=O)N1CCC[C@H]1C(=O)N[C@@H](CCCNC(=N)N)C(=O)N1CCC[C@H]1C(=O)N[C@H](C(=O)N1CCC[C@H]1C(=O)N[C@@H](CCCNC(=N)N)C(=O)N1CCC[C@H]1C(=O)N[C@@H](CC(C)C)C(=O)N1CCC[C@H]1C(=O)N[C@@H](Cc1ccccc1)C(=O)N1CCC[C@H]1C(=O)O)[C@@H](C)CC` gave an MIC of 1.5 µM (alamarBlue; SQ110; overnight, 37 °C).
`CC1(C)S[C@@H]2[C@H](NC(=O)[C@H](N)c3ccccc3)C(=O)N2[C@H]1C(=O)O` has an MIC of 512 µg/mL (OXA-48 expressing).
With `CC[C@H](C)[C@H](NC(=O)[C@H](CCCNC(=N)N)NC(=O)[C@@H](N)CCCNC(=N)N)C(=O)N[C@@H](CCCNC(=N)N)C(=O)N[C@@H](CCCCN)C(=O)N[C@@H](CCCNC(=N)N)C(=O)N1CCC[C@H]1C(=O)N1CCC[C@H]1C(=O)N[C@@H](CCCNC(=N)N)C(=O)N[C@@H](CC(C)C)C(=O)N1CCC[C@H]1C(=O)N[C@@H](CCCNC(=N)N)C(=O)N1CCC[C@H]1C(=O)N[C@@H](CCCNC(=N)N)C(=O)N1CCC[C@H]1C(=O)N[C@@H](CCCCN)C(=O)O` the MIC was 0.06 ± 0.014 µM (JW0368 ΔsbmA; 18 h, 37 °C, 12.5% Mueller-Hinton broth).
For `PACAP(6-38)`, the MIC was 1.36 µM (ATCC 25922).
`CC[C@H](C)[C@H](NC(=O)[C@H](Cc1c[nH]c2ccccc12)NC(=O)[C@@H](N)CCCNC(=N)N)C(=O)N[C@@H](CCCNC(=N)N)C(=O)N[C@@H](Cc1c[nH]c2ccccc12)C(=O)N[C@H](C(=O)N[C@@H](Cc1c[nH]c2ccccc12)C(=O)N[C@@H](CCCNC(=N)N)C(=O)N[C@@H](CCCCN)C(=O)N[C@@H](CCCCN)C(=O)N[C@@H](CC(C)C)C(=O)N[C@@H](CCCNC(=N)N)C(N)=O)C(C)C` has an MIC of 25 to 50 µg/mL (broth microdilution; ATCC 25922, LB medium; 16 to 20 h, 37 °C).
For `CC(C)C[C@H](NC(=O)[C@H](CCCNC(=N)N)NC(=O)[C@@H]1CCCN1C(=O)[C@H](Cc1c[nH]cn1)NC(=O)[C@@H]1CCCN1C(=O)[C@@H]1CCCN1C(=O)[C@H](CCCNC(=N)N)NC(=O)[C@@H]1CCCN1C(=O)[C@H](CCC(N)=O)NC(=O)[C@@H]1CCCN1C(=O)[C@H](CCCNC(=N)N)NC(=O)[C@H](Cc1ccc(O)cc1)NC(=O)[C@@H](NC(=O)[C@@H]1CCCN1C(=O)[C@H](CCCCN)NC(=O)[C@H](CC(N)=O)NC(=O)[C@H](CC(N)=O)NC(=O)CN)C(C)C)C(=O)O`, the MIC was 0.384 ± 0.08 µM (broth microdilution; BW25113, 20% M9 medium).
With `CC[C@H](C)[C@H](NC(=O)[C@H](CO)NC(=O)[C@@H](NC(=O)[C@H](C)NC(=O)[C@H](CCC(N)=O)NC(=O)CNC(=O)[C@@H](NC(=O)[C@@H](NC(=O)CNC(=O)[C@@H](NC(=O)[C@H](C)NC(=O)[C@@H]1CCCN1C(=O)CNC(=O)[C@H](C)NC(=O)[C@H](CCCCN)NC(=O)[C@@H](NC(=O)[C@@H](NC(=O)CNC(=O)[C@H](CC(=O)O)NC(=O)[C@H](CCCNC(=N)N)NC(=O)[C@@H](NC(=O)[C@H](CCCCN)NC(=O)[C@H](CCCNC(=N)N)NC(=O)CNC(=O)[C@@H](NC(=O)[C@H](CCCCN)NC(=O)[C@H](CCC(=O)O)NC(=O)[C@@H](NC(=O)[C@H](CCCCN)NC(=O)[C@H](CCCCN)NC(=O)[C@H](CC(C)C)NC(=O)[C@H](Cc1ccccc1)NC(=O)[C@H](CCCCN)NC(=O)[C@H](Cc1c[nH]c2ccccc12)NC(=O)[C@@H](N)CCCNC(=N)N)[C@@H](C)CC)C(C)C)C(C)C)C(C)C)[C@@H](C)CC)C(C)C)C(C)C)C(C)C)[C@@H](C)O)C(=O)N[C@@H](Cc1ccc(O)cc1)C(=O)N[C@@H](CCCCN)C(N)=O` the MIC was 2.1 ± 0.7 µg/mL (broth microdilution; DH5α; 20 h, 37 °C).
`CC(C)C[C@H](NC(=O)[C@H](Cc1c[nH]c2ccccc12)NC(=O)[C@H](CCCNC(=N)N)NC(=O)[C@H](CC(C)C)NC(=O)[C@H](CCCNC(=N)N)NC(=O)[C@H](Cc1c[nH]c2ccccc12)NC(=O)[C@H](Cc1c[nH]c2ccccc12)NC(=O)[C@H](CC(C)C)NC(=O)[C@H](CCCCN)NC(=O)[C@H](Cc1c[nH]c2ccccc12)NC(=O)[C@@H](NC(=O)[C@@H](N)CC(C)C)C(C)C)C(=O)N[C@@H](CCCCN)C(N)=O` has an MIC of no less than 100 µg/mL (ATCC 25922; 1 h, 37 °C, non-dividing cells in PBS).
The MIC of `CC(C)C[C@H](NC(=O)[C@H](CCCNC(=N)N)NC(=O)[C@@H]1CCCN1C(=O)[C@H](CCCNC(=N)N)NC(=O)[C@@H]1CCCN1C(=O)[C@@H]1CCCN1C(=O)[C@H](CCCNC(=N)N)NC(=O)[C@@H]1CCCN1C(=O)[C@H](CCC(N)=O)NC(=O)[C@@H]1CCCN1C(=O)[C@H](CCCCN)NC(=O)[C@H](Cc1ccc(O)cc1)NC(=O)[C@@H](NC(=O)[C@@H]1CCCN1C(=O)[C@H](CCCCN)NC(=O)[C@H](CC(N)=O)NC(=O)[C@H](CC(N)=O)NC(=O)CN)C(C)C)C(=O)O` is reported as 0.192 ± 0.044 µM (JW0368 ΔsbmA; 18 h, 37 °C, 12.5% Mueller-Hinton broth).
`CC[C@H](C)[C@H](NC(=O)[C@H](CC(C)C)NC(=O)[C@H](C)NC(=O)[C@@H]1CCCN1C(=O)[C@H](CCCNC(=N)N)NC(=O)[C@@H](N)Cc1ccccc1)C(=O)N[C@H](C(=O)N[C@@H](CCCNC(=N)N)C(=O)N[C@H](C(=O)N[C@@H](CCCCN)C(=O)NCC(=O)N[C@H](C(=O)N[C@@H](CCCNC(=N)N)C(=O)N[C@@H](CC(C)C)C(=O)O)[C@@H](C)O)[C@@H](C)O)C(C)C` gave an MIC of greater than 30 µM (broth microdilution; K12; 37 °C).
`CC[C@H](C)[C@H](NC(=O)[C@@H]1CCCN1C(=O)[C@H](CCCNC(=N)N)NC(=O)[C@@H]1CCCN1C(=O)[C@@H]1CCCN1C(=O)[C@@H](NC(=O)[C@@H]1CCCN1C(=O)[C@H](CCCNC(=N)N)NC(=O)[C@@H]1CCCN1C(=O)[C@H](CC(C)C)NC(=O)[C@H](Cc1ccc(O)cc1)NC(=O)[C@H](CO)NC(=O)CNC(=O)[C@H](CCCCN)NC(=O)[C@H](CC(=O)O)NC(=O)[C@@H](N)C(C)C)[C@@H](C)O)C(=O)N[C@@H](Cc1ccc(O)cc1)C(=O)N[C@@H](CC(N)=O)C(=O)N[C@@H](CCCNC(=N)N)C(=O)N[C@@H](CC(N)=O)C(=O)O` gave an MIC of 0.15 ± 0.034 µM (JW0013; 18 h, 37 °C, 12.5% Mueller-Hinton broth).
`CC[C@H](C)[C@H](NC(=O)CN)C(=O)N[C@@H](CCCCN)C(=O)N[C@H](C(=O)N[C@@H](CCCNC(=N)N)C(=O)N[C@@H](CCCCN)C(=O)N[C@@H](CC(C)C)C(=O)N[C@@H](Cc1ccccc1)C(=O)N[C@@H](CCCCN)C(=O)N[C@@H](CCCCN)C(=O)N[C@@H](CC(C)C)C(=O)N[C@@H](CC(C)C)C(=O)N[C@@H](CCCNC(=N)N)C(N)=O)[C@@H](C)CC` gave an MIC of 50 µg/mL (broth microdilution; ATCC 25922, LB medium; 16 to 20 h, 37 °C).
`CC[C@H](C)[C@H](NC(=O)[C@H](CC(=O)O)NC(=O)[C@H](Cc1ccccc1)NC(=O)[C@H](CC(C)C)NC(=O)CN)C(=O)N[C@H](C(=O)N[C@@H](CCCCN)C(=O)N[C@@H](CCCCN)C(=O)N[C@H](C(=O)N[C@H](C(=O)NCC(=O)N[C@@H](C)C(=O)N[C@@H](CC(C)C)C(=O)N[C@@H](CCCCN)C(N)=O)C(C)C)C(C)C)C(C)C` gave an MIC of greater than 22 µM (ATCC 25922, CAMHB; 18 h, 37 °C).
The MIC of `CC[C@H](C)[C@H](NC(=O)CNC(=O)[C@H](CCCNC(=N)N)NC(=O)[C@H](Cc1ccccc1)NC(=O)[C@@H](NC(=O)[C@H](Cc1c[nH]cn1)NC(=O)[C@H](Cc1c[nH]cn1)NC(=O)[C@H](Cc1ccccc1)NC(=O)[C@@H](N)Cc1ccccc1)[C@@H](C)CC)C(=O)N[C@H](C(=O)N[C@@H](Cc1c[nH]cn1)C(=O)N[C@H](C(=O)NCC(=O)N[C@@H](CCCCN)C(=O)N[C@H](C(=O)N[C@H](C(=O)N[C@@H](Cc1c[nH]cn1)C(=O)N[C@@H](CCCNC(=N)N)C(=O)N[C@@H](CC(C)C)C(=O)N[C@H](C(=O)N[C@H](C(=O)NCC(=O)O)[C@@H](C)O)C(C)C)[C@@H](C)CC)[C@@H](C)O)C(C)C)C(C)C` is reported as 12.5 µM (broth microdilution; K12; 37 °C).

For quick reference, copied from above:
`N=C(N)NCCC[C@H](NC(=O)[C@H](Cc1c[nH]cn1)NC(=O)[C@@H]1CCCN1C(=O)[C@H](CS)NC(=O)[C@@H](N)Cc1ccc(O)cc1)C(=O)N[C@@H](CS)C(=O)O` gave an MIC of 45 µg/mL (broth microdilution; MTCC 443; 37 °C).
The MIC of `CC(C)C[C@H](NC(=O)[C@H](CCCNC(=N)N)NC(=O)[C@@H]1CCCN1C(=O)[C@H](CCCNC(=N)N)NC(=O)[C@@H]1CCCN1C(=O)[C@@H]1CCCN1C(=O)[C@H](CCCNC(=N)N)NC(=O)[C@@H]1CCCN1C(=O)[C@H](CCC(N)=O)NC(=O)[C@@H]1CCCN1C(=O)[C@H](CCCCN)NC(=O)[C@H](Cc1ccc(O)cc1)NC(=O)[C@@H](NC(=O)[C@@H]1CCCN1C(=O)[C@H](CCCCN)NC(=O)[C@H](CC(N)=O)NC(=O)[C@H](CC(N)=O)NC(=O)CN)C(C)C)C(=O)O` is reported as 0.192 ± 0.044 µM (JW0368 ΔsbmA; 18 h, 37 °C, 12.5% Mueller-Hinton broth).
